# Results from different studies.
# Each numbered part is a random draw from the data of one study; scales do not carry over between parts. Changes are numbered by the printed parent chain.

# Series 1
# Target: RNA binding protein fox-1 homolog 2, RRM domain, GST-SBP tag (RBFOX2, Homo sapiens, UniProt O43251-10, residues 100-194)
# Technique: RNA Bind-n-Seq
# Form: RNA
# Sample: in vitro
# Concentration: 365 nM
# Setting: natural RNA segment, single round, ends assumed
# Baseline: no-protein control
# Direction: higher = stronger binding
# Constant ends, left off below: GGGAGUUCUACAGUCCGACGAUC … UGGAAUUCUCGGGUGCCAA
Sequence,RBNS enrichment (R)
UGCCAAAGCACUUAAAAUCUCCUUUAAAUUCUUACCAUAUGCUUACUUUUGUACUAAGUAAGUGCUCCCAAGUCUUUUACUUGCUCUUCACAGCAACCCUAAUAGGUAUC,0.673
CACAUACAGUUUUAUGCUCUUUUUUACUCAUUGAAAUGUCACGUACUGUCUGAUUGGCUUGUAGAAUUGUUAUAGACUGCCGUGCAUUAGCACAGAUUUUAAUUGUCAUG,0.958
UGUUAUUAGAGAUUACCUCCUGAGAAAAAAGGUUCCGCUUGGAGCAGAGGGGCUGAAUAGCAGAAGGUUGCACCUCCCCCAACCUUAGAUGUUCUAAGUCUUUCCAUUGG,0.502
CACCCCUGGACUUGAUCAGUAUUCAACCUUGUCUCCUGUCCCCAAUGUCGUAAGCACAAUUAGACUUCUUCCGGCUUGAGUUUGCUGCCUCCUACAGCAAGGACAGGAAU,0.495
UAAAAAUCAGUAUGUGUUUAGUUUUAGUGUACUGAAGGGUAAACAUGGUUUUAUUUUAUUUUACCAUAUUAUUUUGUGUUGUUUUAUUUCUAUUGUGCUGUAAGUUGAUG,1.52
GCUUCAAUGUGCAAUUCCUUUCUGCUUCCAAAGGUAUGCCUGCUUUGCUUUUGACUCUAAGCAUAACAUGACAAACCUCUAAGGAUGUAAUUAAAUUUAUUUUAAAACUU,2.8
UGGUCUCAAACUCCUAAGGUCAUCCACCUGCCUCGGCCUCCCAGAGUGCUGAGAUUACAGGCGUGAGCCUCCGCGCCCGGCCCCCUUGCAGUUCUCUCUGAUUUGGUUUG,0.373
CCGCUGGUUGGUACACUGAUUUCCAGGAAAAGCCCCAGAAGCAGUAGAGGGAGAGCCAUGUACUUGGGAGUAGGCUGAAGUACCUAACAGUGUAGGGUAAAGAACAGAAU,1.11

# Series 2
# Target: Sal-like protein 4, full length isoform A (SALL4, Homo sapiens, UniProt Q9UJQ4, residues 1-1053)
# UniProt Q9UJQ4, sequence (whole entry, looked up): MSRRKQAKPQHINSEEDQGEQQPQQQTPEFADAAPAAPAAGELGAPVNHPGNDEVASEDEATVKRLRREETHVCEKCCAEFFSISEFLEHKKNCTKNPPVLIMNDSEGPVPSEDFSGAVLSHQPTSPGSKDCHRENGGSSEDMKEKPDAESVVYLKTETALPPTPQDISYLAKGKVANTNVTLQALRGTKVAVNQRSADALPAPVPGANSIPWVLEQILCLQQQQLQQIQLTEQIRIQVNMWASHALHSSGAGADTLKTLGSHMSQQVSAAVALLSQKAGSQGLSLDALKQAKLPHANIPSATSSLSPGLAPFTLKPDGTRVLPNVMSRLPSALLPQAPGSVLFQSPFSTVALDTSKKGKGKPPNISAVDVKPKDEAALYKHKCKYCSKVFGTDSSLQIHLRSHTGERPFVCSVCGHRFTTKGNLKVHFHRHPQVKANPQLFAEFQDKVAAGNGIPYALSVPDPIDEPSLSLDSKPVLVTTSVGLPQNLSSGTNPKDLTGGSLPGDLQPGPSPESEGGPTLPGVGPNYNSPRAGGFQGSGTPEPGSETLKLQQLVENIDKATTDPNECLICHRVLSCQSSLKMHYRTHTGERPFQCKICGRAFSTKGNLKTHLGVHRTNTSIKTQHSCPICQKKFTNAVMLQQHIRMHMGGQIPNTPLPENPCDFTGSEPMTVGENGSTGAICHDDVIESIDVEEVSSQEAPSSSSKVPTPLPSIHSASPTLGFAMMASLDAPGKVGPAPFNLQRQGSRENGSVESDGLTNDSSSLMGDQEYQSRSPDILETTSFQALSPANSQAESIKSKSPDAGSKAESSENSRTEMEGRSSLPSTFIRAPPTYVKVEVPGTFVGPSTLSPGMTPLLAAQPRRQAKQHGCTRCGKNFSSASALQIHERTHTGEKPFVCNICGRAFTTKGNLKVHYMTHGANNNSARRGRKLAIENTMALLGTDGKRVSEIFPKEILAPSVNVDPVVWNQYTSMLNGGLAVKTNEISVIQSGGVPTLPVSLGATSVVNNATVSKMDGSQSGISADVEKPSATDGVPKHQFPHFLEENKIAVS
# Technique: universal PBM
# Form: double-stranded DNA, one strand shown
# Sample: in vitro
# Concentration: 600 nM
# Setting: 8-mer, flanks averaged, mean of replicates
# Direction: higher = stronger binding
Sequence,E-score
TATCTCGA,0.142
AGGGACAA,-0.123
ATGTGGTA,0.159
TCGCAGCA,-0.0192
GTGTTGCA,-0.00976
CTTCGCGC,-0.0858
ACTTGGTC,-0.142
CGACGGGA,-0.218
AACTAGAC,0.175
CATTCCAG,0.0322
AAGTGGCT,-0.125
ATATGGGG,-0.0722
AAGGCAGC,-0.23
GCGAAACC,-0.0755
AGTAGGTA,0.11
CCTTTCGA,-0.0204
AATATCAC,0.339
CCGAGCAG,-0.253
GAACTATA,0.265
CGGACAAG,-0.15
AGGCCTAT,0.0469
ACACCGAT,-0.135
CAGTTTTC,0.0452
AACTCGTA,0.173
CATATTAC,0.376

# Series 3
# Target: Centromere-binding protein 1, full length, N-terminal tag (CBF1, Saccharomyces cerevisiae, UniProt P17106, residues 1-351)
# UniProt P17106, sequence (whole entry, looked up): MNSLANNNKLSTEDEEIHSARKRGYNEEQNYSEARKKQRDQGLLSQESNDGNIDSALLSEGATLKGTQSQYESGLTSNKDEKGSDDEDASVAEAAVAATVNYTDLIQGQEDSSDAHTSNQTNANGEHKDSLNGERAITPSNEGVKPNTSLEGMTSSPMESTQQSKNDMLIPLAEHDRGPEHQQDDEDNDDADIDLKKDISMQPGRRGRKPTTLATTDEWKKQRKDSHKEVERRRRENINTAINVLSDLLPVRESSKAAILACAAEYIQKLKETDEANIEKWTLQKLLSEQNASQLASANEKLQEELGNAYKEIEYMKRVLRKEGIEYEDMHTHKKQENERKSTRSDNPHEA
# Technique: protein-binding microarray
# Form: double-stranded DNA, one strand shown
# Sample: in vitro
# Concentration: 0.8 µM
# Setting: whole 60-bp probe, no competitor
# Direction: higher = stronger binding
# Constant ends, left off below: … GTCTTGATTCGCTTGACGCTGCTG
Sequence,fluorescence intensity
CTATGTTTTCGTTATCGCGTGGCACGATATCATTTC,1300 a.u.
CTAAACAGACAACAACACCTGCTTCATCAGCTGTTC,602 a.u.
GAATAATGTAGACGTGGTGTTACTACAATTGTATAG,545 a.u.
CTACACTGATTGCTCCACGTCATGCGGCCTTCTTTC,582 a.u.
GAAGCACCCCCAATCCACGTGTGTTTTATACGCTAG,1390 a.u.
GAAAAGGAAGGTGTTCACGTTCCTGATTTATTCTAG,670 a.u.
GAATCTTCGCAAGTACATGTGCGCAGCAGCCATTAG,652 a.u.
GAACATGAGAACCCATGTGAGTCTAAAGCTGTGTAG,617 a.u.
CTATATAAACGGAGAGTGATGACGTTTTAAAAGTTC,553 a.u.
GAATATTATATGAATCCACGCACCTGATCTGGCTAG,1600 a.u.
TGTACGAAGCTATGTTTCATCAGTATAGTAGTTAGG,526 a.u.
CTATATCGTTCTCAAGACGTGGTCCCATTTTTTTTC,531 a.u.
CTACGCACATACATGCACGCGCATGACAGTGACTTC,853 a.u.
GAATCGGCACAGGCTCACCTGGGCCTACTAATTTAG,478 a.u.
TGTACGAAGCTATATCACCTCTTTATAGTAGTTAGG,522 a.u.
CTAAAAATGATAGGTTACGTGCTATATCCGGAATTC,536 a.u.
GAAATTTGTCAACCTCGTGGGAGACTCGATAGGTAG,605 a.u.
CTATTCATATCCTAAAACGTGTTGACAACACTTTTC,599 a.u.
CTATTACACTAAAAAGGTAACGTGTAGAGTGATTTC,708 a.u.

# Series 4
# Target: Histone acetyltransferase KAT6A, winged helix 2, GST fusion (KAT6A, Homo sapiens, UniProt Q92794, residues 85-181)
# Technique: protein binding microarray
# Form: double-stranded DNA, one strand shown
# Sample: in vitro
# Concentration: not given
# Setting: 8-mer, flanks averaged, mean of 2 arrays, mostly near background
# Baseline: not given
# Direction: higher = stronger binding
# Target sequence (chain): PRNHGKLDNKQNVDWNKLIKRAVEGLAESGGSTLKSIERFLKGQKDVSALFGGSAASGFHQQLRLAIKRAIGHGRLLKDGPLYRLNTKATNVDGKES
Sequence,E-score
GTTGTTTA,-0.0477
GGTTTTAC,-0.158
AATTAGTG,0.0429
ACCTACAT,-0.197
CTCGGCAG,0.164
ACCCATCA,-0.131
CTTGGACC,-0.0449
CGAAGGGC,0.14
AGGTACCC,0.00654
GAAGGGTA,-0.0462
AACGGTGC,0.0661
GGCGCGTA,-0.109
GATAAGGA,0.00576
CTGGTAAC,0.0762
ATAACATG,-0.126
CCCTGACC,0.135
TATCAAAA,0.0899
ACGGCTTC,0.0321
CGAAACGA,0.0262
CGACACCG,-0.0245
TACGAGTA,-0.0483
CACCGGAC,0.201
TAGGCAGA,0.19
ATACCGCA,0.0378
ATCCGCGC,0.125

# Series 5
# Target: CREB3L3, bZIP domain (human)
# Technique: DHFR protein complementation
# Sample: yeast
# Setting: single substitutions, most at no-binding floor
# Baseline: wild-type JUN-FOS pair
# Direction: higher = stronger binding
# Starting sequence: JUN, bZIP domain (human); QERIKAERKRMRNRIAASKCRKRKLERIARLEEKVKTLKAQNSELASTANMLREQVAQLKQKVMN; partner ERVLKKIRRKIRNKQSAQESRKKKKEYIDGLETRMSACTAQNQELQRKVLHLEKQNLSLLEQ
Substitution,binding fitness [natural log]
E32N,-1.53
L52P,-1.53
T37C,-1.38
A40K,-1.39
E32C,-1.45
L38R,-1.49
A49T,-1.29
E44C,-1.58
Q55R,-1.44
S43Q,-1.49
A46N,-1.45
R30H,-1.18
